Assay results of several laboratories.
Lines come from different studies, so protocols differ. pIC50, pKd: −log10 of the molar value.
Spike glycoprotein: Spike glycoprotein (Severe acute respiratory syndrome coronavirus 2, UniProt P0DTC2)

SMILES = CC[C@H](C)[C@H](NC(=O)[C@H](C)NC(=O)[C@H](CCC(=O)O)NC(=O)[C@H](CCC(=O)O)NC(=O)[C@H](CC(C)C)NC(=O)[C@H](CCCCN)NC(=O)[C@H](CCCCN)NC(=O)[C@H](CCSC)NC(=O)[C@H](CCC(=O)O)NC(=O)[C@H](Cc1ccc(O)cc1)NC(=O)[C@H](CCC(=O)O)NC(=O)[C@H](CC(C)C)NC(=O)[C@H](CC(=O)O)NC(=O)[C@H](CC(C)C)NC(=O)[C@H](Cc1ccccc1)NC(=O)[C@@H](NC(=O)[C@@H](NC(=O)[C@H](CC(N)=O)NC(=O)[C@@H](NC(=O)[C@H](CCC(N)=O)NC(=O)[C@H](CC(=O)O)NC(=O)[C@H](CC(C)C)NC(=O)[C@H](CO)NC(=O)CNC(=O)[C@H](CC(C)C)NC(=O)[C@H](CC(=O)O)NC(=O)[C@@H](N)C(C)C)[C@@H](C)CC)C(C)C)[C@@H](C)O)C(=O)N[C@@H](CCCCN)C(=O)N[C@@H](CCCCN)C(=O)N[C@@H](CC(C)C)C(=O)N[C@@H](CCC(=O)O)C(=O)N[C@@H](CCC(=O)O)C(=O)N[C@@H](CO)C(=O)N[C@@H](Cc1ccc(O)cc1)C(=O)N[C@H](C(=O)N[C@@H](CC(=O)O)C(=O)N[C@@H](CC(C)C)C(=O)N[C@@H](CCCCN)C(=O)N[C@@H](CCC(=O)O)C(=O)N[C@@H](CC(C)C)C(=O)O)[C@@H](C)CC; target = Spike glycoprotein, Beta variant (Severe acute respiratory syndrome coronavirus 2, UniProt P0DTC2); read-out = viral replication; organism = SARS-CoV-2; measurement = pIC50; value = 7.41
SMILES = CC(C)(O)[C@@H]1CC[C@](C)([C@H]2[C@@H](O)C[C@@]3(C)[C@@H]4C[C@H](O)[C@H]5C(C)(C)[C@@H](O)CC[C@@]56C[C@@]46CC[C@]23C)O1; target = Spike glycoprotein; read-out = spike RBD-ACE2 binding; action = inhibitor; method = ELISA; measurement = pIC50; value = < 4.40
SMILES = CC(C)C[C@H](NC(=O)[C@H](Cc1c[nH]c2ccccc12)NC(=O)[C@H](CCCNC(=N)N)NC(=O)[C@H]1CCC[C@@H]1NC(=O)[C@H](CCC(=O)O)NC(=O)[C@H](CC(=O)O)NC(=O)[C@H](CC(=O)O)NC(=O)[C@@H](N)CC(N)=O)C(=O)N[C@H]1CCC[C@@H]1C(=O)N[C@H](C(=O)N[C@@H](CC(=O)O)C(=O)N[C@H]1CCC[C@@H]1C(=O)N[C@H](C(=O)N[C@@H](Cc1ccc(O)cc1)C(=O)N[C@@H](CCCC(=O)O)C(=O)N[C@H]1CCC[C@@H]1C(=O)N[C@@H](Cc1c[nH]c2ccccc12)C(=O)N[C@@H](Cc1c[nH]cn1)C(N)=O)C(C)C)[C@@H](C)O; target = Spike glycoprotein, RBD (Severe acute respiratory syndrome coronavirus 2, UniProt P0DTC2); measurement = pKd; value = 5.21
SMILES = CC[C@H](C)[C@H](NC(=O)[C@H](C)NC(=O)[C@H](CCC(=O)O)NC(=O)[C@H](CCC(=O)O)NC(=O)[C@H](CC(C)C)NC(=O)[C@H](CCCCN)NC(=O)[C@H](CCCCN)NC(=O)[C@H](CCSC)NC(=O)[C@H](CCC(=O)O)NC(=O)[C@H](Cc1ccc(O)cc1)NC(=O)[C@H](CCC(=O)O)NC(=O)[C@H](CC(C)C)NC(=O)[C@H](CC(=O)O)NC(=O)[C@H](CC(C)C)NC(=O)[C@H](Cc1ccccc1)NC(=O)[C@@H](NC(=O)[C@@H](NC(=O)[C@H](CC(N)=O)NC(=O)[C@@H](NC(=O)[C@H](CCC(N)=O)NC(=O)[C@H](CC(=O)O)NC(=O)[C@H](CC(C)C)NC(=O)[C@@H](N)CO)[C@@H](C)CC)C(C)C)[C@@H](C)O)C(=O)N[C@@H](CCCCN)C(=O)N[C@@H](CCCCN)C(=O)N[C@@H](CC(C)C)C(=O)N[C@@H](CCC(=O)O)C(=O)N[C@@H](CCC(=O)O)C(=O)N[C@@H](CO)C(=O)N[C@@H](Cc1ccc(O)cc1)C(=O)N[C@H](C(=O)N[C@@H](CC(=O)O)C(=O)N[C@@H](CC(C)C)C(=O)N[C@@H](CCCCN)C(=O)N[C@@H](CCC(=O)O)C(=O)N[C@@H](CC(C)C)C(=O)O)[C@@H](C)CC; target = Spike glycoprotein; read-out = ligand displacement; method = FP; measurement = pIC50; value = 8.60
SMILES = CCCCCCCCOC1OC(C)C(OC2OC(C)C(OC3OC(C)C(OC4OC(C)C(OS(=O)(=O)O)C(OS(=O)(=O)O)C4OS(=O)(=O)O)C(OS(=O)(=O)O)C3OS(=O)(=O)O)C(OS(=O)(=O)O)C2OS(=O)(=O)O)C(OS(=O)(=O)O)C1OS(=O)(=O)O (stereo not shown); target = Spike glycoprotein; measurement = pIC50; value = 4.52
SMILES = Cc1cccc(NC(=O)C[S+]([O-])c2nc(-c3ccccc3)cn2-c2ccc(Cl)cc2)c1C (stereo not shown); target = Spike glycoprotein, RBD; with ACE2 (Severe acute respiratory syndrome coronavirus 2, UniProt P0DTC2); read-out = binding; action = inhibitor; measurement = IC50; value = no inhibition
SMILES = CC[C@H](C)[C@H](NC(=O)[C@H](CCCCNC(=O)CN(CCNC(=O)CN(CCNC(=O)CN(CCNC(=O)CN(CCNC(=O)CN(CCNC(=O)[C@H](CCCNC(=N)N)NC(C)=O)C(=O)Cn1cc(C)c(=O)[nH]c1=O)C(=O)Cn1ccc(N)nc1=O)C(=O)Cn1cnc2c(=O)[nH]c(N)nc21)C(=O)Cn1cnc2c(=O)[nH]c(N)nc21)C(=O)Cn1ccc(N)nc1=O)NC(=O)[C@H](CC(=O)O)NC(=O)[C@H](CO)NC(=O)[C@H](C)NC(=O)[C@H](CCCNC(=N)N)NC(=O)[C@H](CCSC)NC(=O)[C@H](CO)NC(=O)[C@H](C)NC(=O)[C@H](CCC(=O)O)NC(=O)[C@H](C)NC(=O)[C@H](Cc1c[nH]cn1)NC(=O)CNC(=O)[C@H](CC(C)C)NC(=O)[C@H](CCC(=O)O)NC(=O)[C@H](CC(=O)O)NC(=O)[C@H](CC(C)C)NC(=O)[C@H](CC(C)C)NC(=O)[C@H](CCCNC(=N)N)NC(=O)[C@H](CSSC)NC(=O)[C@H](CCCC(=O)NCCN(CC(=O)NCCN(CC(=O)NCCN(CC(=O)NCCN(CC(=O)N[C@@H](CCCNC(=N)N)C(N)=O)C(=O)Cn1cnc2c(=O)[nH]c(N)nc21)C(=O)Cn1ccc(N)nc1=O)C(=O)Cn1ccc(N)nc1=O)C(=O)Cn1cnc2c(=O)[nH]c(N)nc21)NC(=O)[C@H](CCC(=O)O)NC(=O)[C@H](Cc1ccc(O)cc1)NC(=O)[C@@H](NC(=O)[C@H](CCCCN)NC(=O)[C@H](CCC(N)=O)NC(=O)[C@H](CC(C)C)NC(=O)[C@@H](NC(=O)[C@H](Cc1c[nH]c2ccccc12)NC(=O)[C@H](CCC(=O)O)NC(=O)[C@H](CCCCN)NC(=O)[C@H](CC(=O)O)NC(C)=O)[C@@H](C)CC)[C@@H](C)CC)C(=O)N[C@@H](Cc1ccc(O)cc1)C(=O)N[C@@H](CCC(=O)O)C(=O)N[C@@H](Cc1ccccc1)C(=O)N[C@@H](CCSC)C(=O)N[C@@H](CCCCN)C(=O)N[C@@H](CCCCN)C(N)=O; target = Spike glycoprotein; read-out = binding; method = SPR; measurement = pKd; value = 9.66
SMILES = CC(C)C[C@H](NC(=O)[C@H](Cc1ccccc1)NC(=O)[C@@H](NC(=O)[C@H](CCCCN)NC(=O)[C@H](C)NC(=O)[C@H](CCC(N)=O)NC(=O)[C@@H](N)CCC(=O)O)[C@@H](C)O)C(=O)N[C@@H](CC(=O)O)C(=O)N[C@@H](CCCCN)C(=O)N[C@@H](Cc1ccccc1)C(=O)O; target = Spike glycoprotein; read-out = binding; measurement = pKd; value = 7.32
SMILES = O=C(/C=C/c1ccc(O)c2oc(-c3ccc(O)c(O)c3)cc12)O[C@H](Cc1ccc(O)c(O)c1)C(=O)O; target = Spike glycoprotein; read-out = cell-free assay; method = FP; measurement = pIC50; value = 5.05
SMILES = C=Cc1c(C)c2cc3nc(cc4[nH]c(cc5nc(cc1[nH]2)C(C)=C5CCC(=O)O)c(CCC(=O)OC)c4C)C1(C)C3=CC=C(C(=O)OC)C1C(=O)OC (stereo not shown); target = Spike glycoprotein, with TMPRSS2 (Severe acute respiratory syndrome coronavirus 2, UniProt P0DTC2); action = inhibitor; organism = SARS-CoV-2; measurement = pIC50; value = 4.83

Repeated from above:
SMILES = CC(C)C[C@H](NC(=O)[C@H](Cc1ccccc1)NC(=O)[C@@H](NC(=O)[C@H](CCCCN)NC(=O)[C@H](C)NC(=O)[C@H](CCC(N)=O)NC(=O)[C@@H](N)CCC(=O)O)[C@@H](C)O)C(=O)N[C@@H](CC(=O)O)C(=O)N[C@@H](CCCCN)C(=O)N[C@@H](Cc1ccccc1)C(=O)O; target = Spike glycoprotein; read-out = binding; measurement = pKd; value = 7.32
